Assay results of several laboratories.
Each line is one published result; not all experiments were run side by side.
Molecule type: double-stranded DNA, one strand shown
pmiR 1-240: pmiR fragment (Pseudomonas aeruginosa)
crp 1-224: crp 1-224 (Streptomyces coelicolor, UniProt Q9XA42)
fruR: fruR (Faecalibacterium prausnitzii)
T1: mexT 1-304 (Pseudomonas aeruginosa); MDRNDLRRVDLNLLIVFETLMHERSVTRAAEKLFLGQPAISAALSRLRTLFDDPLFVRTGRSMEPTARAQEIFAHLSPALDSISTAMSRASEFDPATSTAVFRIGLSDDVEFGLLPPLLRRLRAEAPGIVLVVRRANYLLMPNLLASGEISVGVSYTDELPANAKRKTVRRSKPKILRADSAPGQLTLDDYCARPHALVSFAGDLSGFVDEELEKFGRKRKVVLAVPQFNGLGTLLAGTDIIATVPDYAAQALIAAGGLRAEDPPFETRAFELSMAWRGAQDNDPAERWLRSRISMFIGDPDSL
T2: cbrB residues 1-471 (Pseudomonas stutzeri); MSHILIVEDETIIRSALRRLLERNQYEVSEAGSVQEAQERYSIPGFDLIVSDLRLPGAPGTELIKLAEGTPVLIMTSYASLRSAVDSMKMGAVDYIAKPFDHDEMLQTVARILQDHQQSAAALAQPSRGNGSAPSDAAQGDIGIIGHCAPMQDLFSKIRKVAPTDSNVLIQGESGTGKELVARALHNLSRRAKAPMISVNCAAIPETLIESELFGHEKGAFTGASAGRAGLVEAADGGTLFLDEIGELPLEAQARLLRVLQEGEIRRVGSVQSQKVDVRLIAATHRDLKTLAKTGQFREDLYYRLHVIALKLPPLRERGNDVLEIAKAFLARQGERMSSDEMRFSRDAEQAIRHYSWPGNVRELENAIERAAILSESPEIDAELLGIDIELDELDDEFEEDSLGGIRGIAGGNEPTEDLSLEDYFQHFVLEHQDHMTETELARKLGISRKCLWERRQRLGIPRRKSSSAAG
T3: vfr 1-214 (Pseudomonas syringae); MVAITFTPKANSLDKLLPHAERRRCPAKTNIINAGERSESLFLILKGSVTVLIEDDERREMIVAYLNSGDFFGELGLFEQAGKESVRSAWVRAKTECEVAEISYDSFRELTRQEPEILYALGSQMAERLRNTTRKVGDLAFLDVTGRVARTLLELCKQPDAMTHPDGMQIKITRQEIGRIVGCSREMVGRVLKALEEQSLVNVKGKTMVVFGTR
T4: fruR (Faecalibacterium prausnitzii); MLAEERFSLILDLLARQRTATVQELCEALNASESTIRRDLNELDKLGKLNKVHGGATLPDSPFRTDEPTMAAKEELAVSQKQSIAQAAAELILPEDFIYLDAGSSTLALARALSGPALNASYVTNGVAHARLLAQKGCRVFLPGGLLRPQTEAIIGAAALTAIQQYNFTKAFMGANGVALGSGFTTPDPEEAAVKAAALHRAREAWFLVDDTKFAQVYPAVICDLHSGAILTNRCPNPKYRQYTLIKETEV
UniProt Q8NP86, sequence (whole entry, looked up): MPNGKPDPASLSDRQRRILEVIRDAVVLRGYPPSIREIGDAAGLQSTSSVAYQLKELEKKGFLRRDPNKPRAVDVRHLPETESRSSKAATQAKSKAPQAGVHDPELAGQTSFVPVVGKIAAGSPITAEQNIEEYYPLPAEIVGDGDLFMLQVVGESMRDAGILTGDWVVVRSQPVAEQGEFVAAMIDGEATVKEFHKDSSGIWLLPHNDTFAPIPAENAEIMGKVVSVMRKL
UniProt O25896, sequence (whole entry, looked up): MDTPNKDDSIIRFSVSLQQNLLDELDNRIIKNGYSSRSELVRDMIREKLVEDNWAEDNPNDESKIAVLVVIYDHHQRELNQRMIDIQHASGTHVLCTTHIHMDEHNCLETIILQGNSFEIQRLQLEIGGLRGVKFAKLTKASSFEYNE

| Strand | target | technique | notes | together with | binding |
| --- | --- | --- | --- | --- | --- |
| TGATTGACCCCACGCAATCCAGGCGGTAGCTTTCGCAAACATTGTCGACACATCGACCCGGACAGCCAGTACCATGACCCAGAACCCGCCCCCTCTCGAGATTGCCCATGACGACGGAGAGACCTTGTCGGAACACGTCTTCCGCAAGATCCAGAGCGCCATCGTCAGCGGCG (dsDNA) | pmiR 1-240 | EMSA |  |  | no binding |
| CGGCTTTTCTTTTCGCCTTATTTATCCAATTTATCGATTAAATAGAGAAAAGCTAACTATCCTTTACGAAATCTTCGACATCACAAAAATAATCAACTAACTTACTGATAAGTAATAAGAAAACACATAATCACCCATGTCTGTAGACACTATCATCGCACTTCGTTTTTAAATCGACTTATCCGAACTGAAAATGACTCCAACGCA (dsDNA (Pseudomonas aeruginosa)) | T1, mexT 1-304 (Pseudomonas aeruginosa) | EMSA |  |  | no binding |
| GTACAGCTCGTCGTTCGACCCCACCGCACTCCCCTCCCACCGCCGGGCGTAAGTTCATTGTGTGATGCGGCCGACCCCGCGGCGCGCGTTTTGCCGACGGCCGGGGGTGAGATGCCGTACGCTCCCGTCGAGTCGGCGGTACTGCAAAGAAATGACAGGGAGCGGCGGGCTCCGGGAAGCGGGTCCCGGGTGCCCGGCCGCATGCAACACTGCGCCATGATGAGGATC (dsDNA) | crp 1-224 | DNase I footprinting |  | cAMP 50 µM | binds |
| CTAGCGGGGATTTCCGGCCACGCGTGCCGTGCCCGGGCCACGCTTGCCTTCCCGGCGCGCCGGACTCCCGGTGGCCTGGAGGACAGGAAAAGCGAGCGGCGAGGTGTCGGCGAGCAGGGTCAACTCGATCTTCTGATAGGGTCGGTGGGCTGTCCGGGGCGGCTAGGATGGACATTTTCATCGTCTCGGGCAGGCCTGTCGCGACCGCGCGAAGTCGCGACGGATGCCGCTGCTAAGGAGCAACGGATGACCGTTCTTATCCAGGG (dsDNA) | pmiR 1-240 | EMSA |  |  | no binding |
| AGGACCGGGGGGCGATGTGGACACGTGCACGCGTTCACGAGCGGCGGCGCATCCCGCGGGCCGCCGCCACGCCGGCCCCGAGAGTCGAGGGGCGCACCCGCACGCGGCGCGCCCACCCGCGACGGACGCGTGTGCCGGGGTAACCGTTCCGTGACCTGCGCCACATTCATGAGAGGTGTCTGAGAACCGGGCT (dsDNA) | crp 1-224 | DNase I footprinting |  | cAMP 50 µM | binds |
| CCCTGGATAAGAACGGTCATCCGTTGCTCCTTAGCAGCGGCATCCGTCGCGACTTCGCGCGGTCGCGACAGGCCTGCCCGAGACGATGAAAATGTCCATCCTAGCCGCCCCGGACAGCCCACCGACCCTATCAGAAGATCGAGTTGACCCTGCTCGCCGACACCTCGCCGCTCGCTTTTCCTGTCCTCCAGGCCACCGGGAGTCCGGCGCGCCGGGAAGGCAAGCGTGGCCCGGGCACGGCACGCGTGGCCGGAAATCCCCGCTAGCCGCCGCCCGCCGCGGCGCT (dsDNA) | pmiR 1-240 | EMSA |  |  | binds |
| ATCTGCTTGTTATTGTTGTTGTGCCATTAGGTAAGCAGTTGCCGTGCCAGTTTTAGGAAATCGTTATATTTCAATGAGTTGTGATTTCCAGGCTTGGCGGAAGGCAAGAAAAAACCGGGGCGTCGTTACCGATGCTCCCGGTTTTTGTTACGAACGATGCGCCGGCGGTAACAAATTACCCGGCGGCGCTACTGGACTTGCGCCGCGGAATGCCCAGGCGCTGGCGGCGTTCCCACAGGCATTTGCGGCTGATGCCGAGCTTGC (dsDNA) | T2, cbrB residues 1-471 (Pseudomonas stutzeri) | DNase I footprinting |  |  | binds |
| CTAGGGATCCTAAAGGGGTATTAAACGCACTTCTAATAACGATTTTATAGCGCTTCAAAGATATAACACTAATTCATTTTAAATAATAATTAGTTAATGAACGCTTCTGTTAATCTTAGTAAATCAAAACATTGCTACAATTACATCCAACCTTGATTTCGTTATGTCTTCAAGGAAAAACACTTTAAGAATAGGAGCTGCAGCGATGC (dsDNA (Helicobacter pylori); blunt) | Putative nickel-responsive regulator 1-148 (Helicobacter pylori, UniProt O25896) | EMSA |  | NiSO4 0.8 mM | binds |
| CGTAGGCGTAGGTGGAACTCATGGCGATGATGGTCTTGTCCAGATCGAAAAAAGCAGCCACCTTTGTGGGGGTGGTCGCAGTGGTGCCCTCTACTTTTTGGGCGGGATCTGGGTGCTTCACACCGCATAGTTTAGCGCTTTTTGGCAACTTTCCAAGACTGAGAAAGAAACTAAAGTTACCAATGAGATTGAAGTGACGTGCTGGGGTTGCGCATTGGGAATGTAGAAGGCGTGCGGGAAGTGTCATTTGCCACACTGTTAAGTATTCGTG (dsDNA (Corynebacterium glutamicum)) | lexA full length assumed (Corynebacterium glutamicum, UniProt Q8NP86) | EMSA |  |  | no binding |
| GCCTAAAAGAGGATATCCTTATAGCATAATTAACTAAACTTAATTAAATAAATAATATATCCTAAGGAGAGAAATG (dsDNA) | Manganese transport regulator 1-215 F187A (Streptococcus pyogenes, UniProt A0A0H2UTK0) | EMSA |  | Mn2+ 300 µM | binds |
| CGATCACTCGCTGAAGAATGGTCATGGCTATCCTCTTTTATTTTTATTGCGCTGAATCTGATCCGGGCCCGCGTGGAGAACGTCAGTCCGGAAAATGATCGCAGCGCTAAAGAGAATGTCGGCCGCACCAAGGACGACTTGAGACGTAGATCACATTATTTTTACTGGCAGGCACCACTGAAAAGGACTGCCTGACCTGAGACGTCATGCAGTCCTTTGCCTGAATACGGTTGA (dsDNA (Pseudomonas syringae)) | T3, vfr 1-214 (Pseudomonas syringae) | EMSA |  |  | binds |
| GTGTGACAAGATATTCCAAGGGTGCTATAATAGGAAATGAGTTAAAAAACGAACAAGCGTTTTATAAGTGTTCGGTTTTTGTAACATAACTGTAATATAAAAACATTTGCATTACTGGTAACTTTCGGGTAATATTGGTAGCAGAGAGGGACAAACGGGACAAATCGAGACACGATACATACTCTCTATACAAGTGAAAAGAAGGTGGTGCATAT (dsDNA) | gp1 1-58 (Bacillus phage GIL01, UniProt Q7WSG8) | DNase I footprinting |  | gp1 200-3200 nM | binds |
| CCGTGATCCCTGGCTCCCCTATTAGGAGAGCTCCGCAAGGCGCTGGCACAGCCAGACCGAAGCGGTGAGAGATTCAGCCGACATTCCATTGTGGAGTGTCGGCCTTTTTGTTGTATCCCACTCTTTATGCATCCTGCCCAAAAAACAGAGCAATATTTTGTCGCTCAAACTTGGCGGAATCTGATTGATTTTGACTGAAATTTTGCTATAATAAGGGTACAAGGCGGTCAGAACCCGCCAATGTCAATCAAAATCAATCATATAAATCGAACAAGGGGGAATGTTCCCG (dsDNA) | T4, fruR (Faecalibacterium prausnitzii) | EMSA | apo |  | binds |
| AATCTCGAGTACCCGGCGACGCCTTCTGAACCGACCTATCCTTGCCCCGGCCTTCCGCCACCGCGAAAGGCCGGGGCGTCTTGCAGCCACGACAAGAAAAACCATCCCCGAACCAGCCTGACCCGAGAGGAAACCCACCACTTACGAACCACTGGAGTACGCGATGAGTGCCAACGTCGATCTGGATCCAAT (dsDNA) | pmiR 1-240 | EMSA |  |  | no binding |
| CCGTGATCCCTGGCTCCCCTATTAGGAGAGCTCCGCAAGGCGCTGGCACAGCCAGACCGAAGCGGTGAGAGATTCAGCCGACATTCCATTGTGGAGTGTCGGCCTTTTTGTTGTATCCCACTCTTTATGCATCCTGCCCAAAAAACAGAGCAATATTTTGTCGCTCAAACTTGGCGGAATCTGATTGATTTTGACTGAAATCATTTTCGCCTAAGGGTACAAGGCGGTCAGAACCCGCCAATGTCAATCAAAATCAATCATATAAATCGAACAAGGGGGAATGTTCCCG (dsDNA) | T4, fruR (Faecalibacterium prausnitzii) | EMSA | apo |  | binds |
| GTATCCATTGCAAACATTCCTTTGGTGCATTATTTATTGAATTTATCATTGACGGCTGTTACACATTTTAAATATTGATATTCATGGTGCTTTTATTTTCGTGGTGAAAGGGGGTGTTTATGAATAAATATAATTATTAGGTGGTTAAGTTGATCGTTAATCCATTTTTGCTTTATCATCGTCACGTTTCACATCAATATATCTTCAATAATTATTTCTTAAGGAAAGGAACTGCTATGGC (dsDNA (Klebsiella pneumoniae); blunt) | hns 1-135 (Klebsiella pneumoniae, UniProt A0ACD7U3E5) | EMSA |  |  | binds |

Excerpt of the above:
| Strand | target | technique | notes | together with | binding |
| --- | --- | --- | --- | --- | --- |
| CGGCTTTTCTTTTCGCCTTATTTATCCAATTTATCGATTAAATAGAGAAAAGCTAACTATCCTTTACGAAATCTTCGACATCACAAAAATAATCAACTAACTTACTGATAAGTAATAAGAAAACACATAATCACCCATGTCTGTAGACACTATCATCGCACTTCGTTTTTAAATCGACTTATCCGAACTGAAAATGACTCCAACGCA (dsDNA (Pseudomonas aeruginosa)) | T1, mexT 1-304 (Pseudomonas aeruginosa) | EMSA |  |  | no binding |
